Published values from different studies.
Compare with care: the assays were run in different laboratories.
Technique: steady-state kinetics
B1: UGT3A2 A344T (Homo sapiens, UniProt Q3SY77); chain AKILTISTVGGSHYLLMDRVSQILQDHGHNVTMLNHKRGPFMPDFKKEEKSYQVISWLAPEDHQREFKKSFDFFLEETLGGRGKFENLLNVLEYLALQCSHFLNRKDIMDSLKNENFDMVIVETFDYCPFLIAEKLGKPFVAILSTSFGSLEFGLPIPLSYVPVFRSLLTDHMDFWGRVKNFLMFFSFCRRQQHMQSTFDNTIKEHFTEGSRPVLSHLLLKAELWFINSDFAFDFARPLLPNTVYVGGLMEKPIKPVPQDLENFIAKFGDSGFVLVTLGSMVNTCQNPEIFKEMNNAFAHLPQGVIWKCQCSHWPKDVHLATNVKIVDWLPQSDLLAHPSIRLFVTHGGQNSIMEAIQHGVPMVGIPLFGDQPENMVRVEAKKFGVSIQLKKLKAETLALKMKQIMEDKRYKSAAVAASVILRSHPLSPTQRLVGWIDHVLQTGGATHLKPYVFQQPWHEQYLLDVFVFLLGLTLGTLWLCGKLLGMAVWWLRGARKVKET
B2: Tat (Mus musculus, UniProt Q8QZR1); chain WNVRPSDMSNKTFNPIRAIVDNMKVKPNPNKTVISLSIGDPTVFGNLPTDPEVTQAMKDALDSGKYNGYAPSIGYLSSREEVASYYHCPEAPLEAKDVILTSGCSQAIELCLAVLANPGQNILIPRPGFSLYRTLAESMGIEVKLYNLLPEKSWEIDLKQLESLIDEKTACLVVNNPSNPCGSVFSKRHLQKILAVAERQCVPILADEIYGDMVFSDCKYEPMATLSTNVPILSCGGLAKRWLVPGWRLGWILIHDRRDIFGNEIRDGLVKLSQRILGPCTIVQGALKSILQRTPQEFYQDTLSFLKSNADLCYGALSAIPGLQPVRPSGAMYLMVGIEMEHFPEFENDVEFTERLIAEQSVHCLPATCFEYPNFFRVVITVPEVMMLEACSRIQEFCEQHY
B3: enzyme (Pseudomonas aeruginosa, UniProt O84908); chain MTRLLVECTYVFEHPKVNSGIQRVVRNVIRELPEADETVECIPVAMLDGTLYQVHSLAPLDPRPHSPLVRLRILVERAANYFWLGQRTLEKRRPFRSSPWARRLLYVACRLFAFAFLSIPLRLLDRILGKQQPAPVRATPLEHRAGDQLVLLDSSWHADFFPLAERLKSEGVGIVSVIYDLIPLTHPQFCDAGLVKVFNHWFDWIAATADGYVAISETIRDEVRAEMLRRIGPEKVAQRWFDYFHLGSELDLVEDGASVEPDLLRMFKAKAPVFLMVSTIEPRKNHGYLLDAFERAWAQGSQARLCIAGRIGWKCEALVERVRQHPELNKRLFMFNDLSDKSLEYAYSHAASLVFPSYVEGFGLPLVEAMQRGLPAMGSDIPVFREIGGEFMAYFDLADPQTLANLVTRFEATGEFPAERPVGEWRWIGWHEASRQLIARILLALGKAPAHGEAVHADCG
B4: UCK2 (Homo sapiens, UniProt Q9BZX2); chain MAGDSEQTLQNHQQPNGGEPFLIGVSGGTASGKSSVCAKIVQLLGQNEVDYRQKQVVILSQDSFYRVLTSEQKAKALKGQFNFDHPDAFDNELILKTLKEITEGKTVQIPVYDFVSHSRKEETVTVYPADVVLFEGILAFYSQEVRDLFQMKLFVDTDADTRLSRRVLRDISERGRDLEQILSQYITFVKPAFEEFCLPTKKYADVIIPRGADNLVAINLIVQHIQDILNGGPSKRQTNGCLNGYTPSRKRQASESSSRPH
B5: MCAT R178G (Homo sapiens, UniProt Q8IVS2); chain GQGSQVVGMGRGLLNYPRVRELYAAARRVLGYDLLELSLHGPQETLDRTVHCQPAIFVASLAAVEKLHHLQPSVIENCVAAAGFSVGEFAALVFAGAMEFAEGLYAVKIGAEAMQEASEAVPSGMLSVLGQPQSKFNFACLEAREHCKSLGIENPVCEVSNYLFPDCRVISGHQEALRFLQKNSSKFHFRRTRMLPVSGAFHTRLMEPAVEPLTQALKAVDIKKPLVSVYSNVHAHRYRHPGHIHKLLAQQLVSPVKWEQTMHAIYERKKGRGFPQTFEVGPGRQLGAILKSCNMQAWKSYSAVDVL
B6: enzyme P89Y (Thermobifida fusca, UniProt Q47RA9); chain MIMIMASKSSPHDLPDVSGLSIAVLGGTGDQGRGLARRFAMAGHEVILGSRSAERAQAVAAELGEGLPVRGMDNAGAAEAGDVVIVAVYWDGHRALLESLKDVLAGKIVVDCVNPLGFDKRGAYALPVEEGSAAEQAAAILPDSRVVAAFHHVSAVLLLDPEVEKVDLDVLVLGDDREATDVVRALAARIPGVRGVYGGRLRNAHQVEAFTANLISINRRYKAHAGIRITDI
B7: ltaE H83N (Escherichia coli, UniProt P75823); chain MIDLRSDTVTRPSRAMLEAMMAAPVGDDVYGDDPTVNALQDYAAELSGKEAAIFLPTGTQANLVALLSHCERGEEYIVGQAANNYLFEAGGAAVLGSIQPQPIDAAADGTLPLDKVAMKIKPDDIHFARTKLLSLENTHNGKVLPREYLKEAWEFTRERNLALHVDGARIFNAVVAYGCELKEITQYCDSFTICLSKGLGTPVGSLLVGNRDYIKRAIRWRKMTGGGMRQSGILAAAGIYALKNNVARLQEDHDNAAWMAEQLREAGADVMRQDTNMLFVRVGEENAAALGEYMKARNVLINASPIVRLVTHLDVSREQLAEVAAHWRAFLAR
B8: estF (Pseudomonas fluorescens, UniProt P22862); chain STFVAKDGTQIYFKDWGSGKPVLFSHGWLLDADMWEYQMEYLSSRGYRTIAFDRRGFGRSDQPWTGNDYDTFADDIAQLIEHLDLKEVTLVGFSMGGGDVARYIARHGSARVAGLVLLGAVTPLFGQKPDYPQGVPLDVFARFKTELLKDRAQFISDFNAPFYGINKGQVVSQGVQTQTLQIALLASLKATVDCVTAFAETDFRPDMAKIDVPTLVIHGDGDQIVPFETTGKVAAELIKGAELKVYKDAPHGFAVTHAQQLNEDLLAFLKR
B9: enzyme R116A (Acetivibrio thermocellus, UniProt A3DJ38); chain MKLTIPELSLVVLIGSSGSGKSTFAKKHFKPTEVISSDFCRGLVSDDENDQTVTGAAFDVLHYIVSKRLQLGKLTVVDATNVQESARKPLIEIAKDYHCFPVAVVFNLPEKVCQEANKNRTDRQVEEYVIRKHTQQLKKSIKGLQREGFRYVYILNSPEEVEEVVFERQP
B10: enzyme A178R/D177A/M179H/P184R (Levilactobacillus brevis, UniProt Q03Q85); chain MKVTVVGCTHAGTFAIKQILAEHPDAEVTVYERNDVISFLSCGIALYLGGKVADPQGLFYSSPEELQKLGANVQMNHNVLAIDPDQKTVTVEDLTNHAQTTESYDKLVMTSGSWPIVPKIPGIDSDRVKLCKNWAHAQALIEDAKEAKRITVIGAGYIGAELAEAYSTTGHDVTLIARHARVMRKYFDADFTDVIEQDYRDHGVQLALGETVESFTDSATGLTIKTDKNSYETDLAILCIGFRPNTDLLKGKVDMAPNGAIITDDYMRSSNPDIFAAGDSAAVHYNPTHQNAYIPLATNAVRQGILVGKNLVKPTVKYMGTQSSSGLALYDRTIVSTGLTLAAAKQQGLNAEQVIVEDNYRPEFMPSTEPVLMSLVFDPDTHRILGGALMSKYDVSQSANTLSVCIQNENTIDDLAMVDMLFQPNFDRPFNYLNILAQAAQAKVAQSVNA
Sequence of UniProt P0AB87 (whole entry, looked up): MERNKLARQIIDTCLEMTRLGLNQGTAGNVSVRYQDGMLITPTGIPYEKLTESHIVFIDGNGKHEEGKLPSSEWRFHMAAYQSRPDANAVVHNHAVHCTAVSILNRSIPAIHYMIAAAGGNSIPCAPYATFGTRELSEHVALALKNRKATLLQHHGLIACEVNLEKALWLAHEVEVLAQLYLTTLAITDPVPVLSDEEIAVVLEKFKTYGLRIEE
Sequence of UniProt P11509 (whole entry, looked up): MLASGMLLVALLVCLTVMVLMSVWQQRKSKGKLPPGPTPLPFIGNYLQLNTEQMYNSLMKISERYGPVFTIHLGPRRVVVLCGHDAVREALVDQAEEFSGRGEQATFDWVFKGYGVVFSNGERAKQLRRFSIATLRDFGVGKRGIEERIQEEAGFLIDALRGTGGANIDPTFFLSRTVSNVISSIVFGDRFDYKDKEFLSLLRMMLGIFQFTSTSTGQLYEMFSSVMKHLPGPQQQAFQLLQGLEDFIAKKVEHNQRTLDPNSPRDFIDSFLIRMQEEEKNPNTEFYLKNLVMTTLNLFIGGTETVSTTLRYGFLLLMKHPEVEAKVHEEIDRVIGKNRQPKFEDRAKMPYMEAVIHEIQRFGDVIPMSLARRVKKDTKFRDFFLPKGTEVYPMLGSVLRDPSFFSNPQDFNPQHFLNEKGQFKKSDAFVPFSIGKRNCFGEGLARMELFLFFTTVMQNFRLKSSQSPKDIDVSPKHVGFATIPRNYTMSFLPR
Sequence of UniProt O48715 (whole entry, looked up): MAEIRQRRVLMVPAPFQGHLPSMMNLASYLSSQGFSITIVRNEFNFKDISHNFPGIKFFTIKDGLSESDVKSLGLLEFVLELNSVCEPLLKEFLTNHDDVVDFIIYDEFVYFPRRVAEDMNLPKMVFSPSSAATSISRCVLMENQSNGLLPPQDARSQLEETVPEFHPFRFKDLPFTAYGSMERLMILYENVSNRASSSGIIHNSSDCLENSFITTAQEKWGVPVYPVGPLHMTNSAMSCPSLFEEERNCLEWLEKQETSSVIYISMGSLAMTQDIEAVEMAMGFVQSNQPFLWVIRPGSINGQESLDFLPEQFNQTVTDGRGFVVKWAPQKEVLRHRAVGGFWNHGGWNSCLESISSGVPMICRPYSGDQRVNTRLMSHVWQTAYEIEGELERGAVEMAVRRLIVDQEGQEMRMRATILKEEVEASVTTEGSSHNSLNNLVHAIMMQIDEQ

Substance | substrate | system | conditions | Km
B1 (UGT3A2 A344T) | O=c1ccn([C@@H]2O[C@H](CO[P@@](=O)(O)O[P@@](=O)(O)O[C@H]3O[C@H](CO)[C@@H](O)[C@H](O)[C@H]3O)[C@@H](O)[C@H]2O)c(=O)[nH]1 |  | pH 7.4, 37 °C, not purified, added: 1-OH-pyrene 16 µM, MgCl2 10 mM, alamethicin | 597 µM
B2 (Tat) | CCCCC(=O)C(=O)O |  | pH 7, 38 °C, added: PLP | 7300 µM
B3 (enzyme) | C[C@H]1O[C@H](OP(=O)(O)OP(=O)(O)OC[C@H]2O[C@@H](n3cnc4c(=O)[nH]c(N)nc43)[C@H](O)[C@@H]2O)[C@@H](O)[C@@H](O)[C@@H]1O |  | pH 9, 37 °C, apparent, not purified | 145 µM
enzyme (Arabidopsis thaliana, UniProt O48715) | O=c1ccn([C@@H]2O[C@H](CO[P@@](=O)(O)O[P@@](=O)(O)O[C@H]3O[C@H](CO)[C@@H](O)[C@H](O)[C@H]3O)[C@@H](O)[C@H]2O)c(=O)[nH]1 |  | pH 7.5, 25 °C | 25.8 µM
enzyme (Babesia duncani, UniProt A0AAD9PLN9) | C[S+](CCCN)C[C@H]1O[C@@H](n2cnc3c(N)ncnc32)[C@H](O)[C@@H]1O |  | pH 7.5, 37 °C | 33.5 µM
fucA (Escherichia coli, UniProt P0AB87) | C[C@@H](O)[C@@H](O)C(=O)COP(=O)(O)O |  | pH 7.8, 30 °C | 980 µM
B4 (UCK2) | O=c1ccn([C@@H]2O[C@H](CO)[C@@H](O)[C@H]2O)c(=O)[nH]1 |  | pH 7.2, 25 °C, KCl 100 mM, added: ATP 100–200 µM | 58 µM
B5 (MCAT R178G) | CC(=O)SCCNC(=O)CCNC(=O)[C@H](O)C(C)(C)COP(=O)(O)OP(=O)(O)OC[C@H]1O[C@@H](n2cnc3c(N)ncnc32)[C@H](O)[C@@H]1OP(=O)(O)O |  | pH 6.8, 20 °C, labelled substrate, added: holo-ACP 20 µM | 32.2 µM
enzyme (Candida albicans, UniProt A0A1D8PHX1) | CCCCC/C=C\C/C=C\CCCCCCCC(=O)SCCNC(=O)CCNC(=O)[C@H](O)C(C)(C)COP(=O)(O)OP(=O)(O)OC[C@H]1O[C@@H](n2cnc3c(N)ncnc32)[C@H](O)[C@@H]1OP(=O)(O)O |  | pH 7.4, 37 °C, apparent, not purified | 38.3 µM
bga (Niallia circulans, UniProt E5RWQ2) | O=[N+]([O-])c1ccccc1O[C@@H]1O[C@H](CO)[C@H](O)[C@H](O)[C@H]1O |  | pH 6, 40 °C, low-substrate phase, biphasic | 1500 µM
B6 (enzyme P89Y) | NC(=O)c1ccc[n+](CCCO)c1 |  | pH 8, 25 °C | 35000 µM
B7 (ltaE H83N) | C[C@H](O)[C@H](N)C(=O)O |  | pH 7, 30 °C, potassium phosphate 20 mM, retro-aldol cleavage, added: PLP 500 µM | 1700 µM
B8 (estF) | CCOC(C)=O |  | pH 6.5, 23 °C, apparent | 15000 µM
B9 (enzyme R116A) | Nc1ncnc2c1ncn2[C@@H]1O[C@H](COP(=O)(O)OP(=O)(O)OP(=O)(O)O)[C@@H](O)[C@H]1O |  | pH 7, 45 °C | 40 µM
B10 (enzyme A178R/D177A/M179H/P184R) | NC(=O)C1=CN([C@@H]2O[C@H](COP(=O)(O)OP(=O)(O)OC[C@H]3O[C@@H](n4cnc5c(N)ncnc54)[C@H](OP(=O)(O)O)[C@@H]3O)[C@@H](O)[C@H]2O)C=CC1 |  | pH 7.5, 37 °C | 15 µM
CYP2A6 (Homo sapiens, UniProt P11509) | CN1C(=O)CC[C@H]1c1cccnc1 | microsomes | pH 6.7, cotinine to COX, not purified | 390 µM
dihydrodipicolinate synthase homolog (Oceanobacillus iheyensis, UniProt Q8EMJ7) | O=C(O)C(=O)C[C@@H](O)[C@H](O)C(=O)O |  | pH 8, added: MgCl2 5 mM | 160 µM

A few entries again:
Substance | substrate | system | conditions | Km
B3 (enzyme) | C[C@H]1O[C@H](OP(=O)(O)OP(=O)(O)OC[C@H]2O[C@@H](n3cnc4c(=O)[nH]c(N)nc43)[C@H](O)[C@@H]2O)[C@@H](O)[C@@H](O)[C@@H]1O |  | pH 9, 37 °C, apparent, not purified | 145 µM
